Assay results from different studies.
Numbered parts are unrelated; each lists some results of a single study. “And” joins repeats or separate records; there may be more than shown.
Sequence of UniProt Q9QZL0 (whole entry, unmodified, looked up): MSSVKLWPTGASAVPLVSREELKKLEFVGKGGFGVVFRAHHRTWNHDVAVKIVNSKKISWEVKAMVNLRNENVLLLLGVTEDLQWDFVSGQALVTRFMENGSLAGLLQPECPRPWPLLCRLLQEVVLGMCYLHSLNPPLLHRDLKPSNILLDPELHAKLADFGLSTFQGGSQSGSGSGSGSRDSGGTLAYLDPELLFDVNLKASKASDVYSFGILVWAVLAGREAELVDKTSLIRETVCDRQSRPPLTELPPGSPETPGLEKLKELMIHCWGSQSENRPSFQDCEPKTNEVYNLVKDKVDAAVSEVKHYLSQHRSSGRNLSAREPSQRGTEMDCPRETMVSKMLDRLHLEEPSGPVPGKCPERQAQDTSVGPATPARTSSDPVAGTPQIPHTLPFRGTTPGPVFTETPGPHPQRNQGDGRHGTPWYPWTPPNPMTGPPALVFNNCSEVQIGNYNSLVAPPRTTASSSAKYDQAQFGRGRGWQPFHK
Sequence of UniProt Q00526 (whole entry, looked up): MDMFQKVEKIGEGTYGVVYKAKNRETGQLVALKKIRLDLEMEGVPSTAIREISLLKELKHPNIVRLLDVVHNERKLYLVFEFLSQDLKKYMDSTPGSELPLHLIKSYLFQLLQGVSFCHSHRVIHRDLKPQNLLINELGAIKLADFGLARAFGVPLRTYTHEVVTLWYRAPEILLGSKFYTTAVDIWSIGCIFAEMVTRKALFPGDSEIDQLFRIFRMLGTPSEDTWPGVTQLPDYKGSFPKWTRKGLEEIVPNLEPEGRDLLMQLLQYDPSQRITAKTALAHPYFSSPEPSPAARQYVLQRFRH
Sequence of UniProt P06213 (whole entry, looked up): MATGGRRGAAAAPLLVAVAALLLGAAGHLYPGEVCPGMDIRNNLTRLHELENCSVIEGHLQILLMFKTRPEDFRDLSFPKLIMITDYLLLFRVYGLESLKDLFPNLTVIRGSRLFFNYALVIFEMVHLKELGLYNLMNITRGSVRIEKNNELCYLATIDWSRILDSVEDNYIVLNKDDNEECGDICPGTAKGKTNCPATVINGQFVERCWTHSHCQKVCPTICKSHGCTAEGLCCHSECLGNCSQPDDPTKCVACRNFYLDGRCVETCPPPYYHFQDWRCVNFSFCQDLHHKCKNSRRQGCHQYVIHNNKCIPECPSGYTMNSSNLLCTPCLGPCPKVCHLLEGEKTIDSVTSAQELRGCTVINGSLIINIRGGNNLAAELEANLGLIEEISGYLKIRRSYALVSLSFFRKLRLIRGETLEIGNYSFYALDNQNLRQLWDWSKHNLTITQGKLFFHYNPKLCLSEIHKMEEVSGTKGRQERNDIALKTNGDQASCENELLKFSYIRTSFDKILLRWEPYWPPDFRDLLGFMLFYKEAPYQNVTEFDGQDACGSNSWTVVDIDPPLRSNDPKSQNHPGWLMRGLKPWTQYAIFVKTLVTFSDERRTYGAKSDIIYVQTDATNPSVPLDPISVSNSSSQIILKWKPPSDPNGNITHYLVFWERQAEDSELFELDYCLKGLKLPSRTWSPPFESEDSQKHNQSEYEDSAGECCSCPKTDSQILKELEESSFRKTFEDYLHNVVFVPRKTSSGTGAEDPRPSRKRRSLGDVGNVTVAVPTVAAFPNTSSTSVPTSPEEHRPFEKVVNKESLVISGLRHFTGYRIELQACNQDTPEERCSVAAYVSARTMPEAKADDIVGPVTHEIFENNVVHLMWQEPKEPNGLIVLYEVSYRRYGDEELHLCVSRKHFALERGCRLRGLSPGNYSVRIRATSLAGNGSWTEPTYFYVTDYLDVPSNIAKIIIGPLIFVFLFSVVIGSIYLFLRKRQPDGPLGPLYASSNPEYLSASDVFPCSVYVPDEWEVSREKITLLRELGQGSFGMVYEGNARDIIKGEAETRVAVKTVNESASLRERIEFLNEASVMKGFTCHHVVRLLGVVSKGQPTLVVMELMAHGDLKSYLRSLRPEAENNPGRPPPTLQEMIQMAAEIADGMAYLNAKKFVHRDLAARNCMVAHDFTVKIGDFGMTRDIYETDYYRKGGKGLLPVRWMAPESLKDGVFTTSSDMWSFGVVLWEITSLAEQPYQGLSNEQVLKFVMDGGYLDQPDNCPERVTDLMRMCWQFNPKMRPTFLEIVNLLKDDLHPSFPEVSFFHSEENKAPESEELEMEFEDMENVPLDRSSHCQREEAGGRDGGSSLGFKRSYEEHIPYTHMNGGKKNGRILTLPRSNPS
Sequence of UniProt P28221 (whole entry, looked up): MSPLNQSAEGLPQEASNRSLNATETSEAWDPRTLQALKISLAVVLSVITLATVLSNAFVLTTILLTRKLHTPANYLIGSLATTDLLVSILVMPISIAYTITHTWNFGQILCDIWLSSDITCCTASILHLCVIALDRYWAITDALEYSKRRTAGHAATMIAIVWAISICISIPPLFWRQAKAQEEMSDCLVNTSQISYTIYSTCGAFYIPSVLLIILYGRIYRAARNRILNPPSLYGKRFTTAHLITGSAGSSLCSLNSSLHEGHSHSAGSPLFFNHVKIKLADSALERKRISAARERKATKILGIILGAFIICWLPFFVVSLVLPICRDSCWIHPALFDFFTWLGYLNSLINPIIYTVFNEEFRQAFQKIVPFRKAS
Sequence of UniProt Q8NG66 (whole entry, looked up): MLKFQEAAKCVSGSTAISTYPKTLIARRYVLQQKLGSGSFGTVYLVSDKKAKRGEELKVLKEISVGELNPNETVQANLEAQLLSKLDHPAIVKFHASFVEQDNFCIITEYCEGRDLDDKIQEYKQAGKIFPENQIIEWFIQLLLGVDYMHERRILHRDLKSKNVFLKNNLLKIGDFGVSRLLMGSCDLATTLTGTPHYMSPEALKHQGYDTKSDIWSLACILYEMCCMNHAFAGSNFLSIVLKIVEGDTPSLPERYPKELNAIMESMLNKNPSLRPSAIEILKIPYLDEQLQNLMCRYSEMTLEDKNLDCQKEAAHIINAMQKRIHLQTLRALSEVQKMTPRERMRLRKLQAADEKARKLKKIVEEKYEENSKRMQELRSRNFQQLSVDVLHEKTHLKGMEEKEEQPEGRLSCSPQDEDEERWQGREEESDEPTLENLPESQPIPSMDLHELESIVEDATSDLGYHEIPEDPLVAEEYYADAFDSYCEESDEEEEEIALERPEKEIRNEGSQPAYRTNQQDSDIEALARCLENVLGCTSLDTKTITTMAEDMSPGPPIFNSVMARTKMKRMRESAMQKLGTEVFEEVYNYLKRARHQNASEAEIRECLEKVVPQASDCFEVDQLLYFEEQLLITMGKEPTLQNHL
Sequence of UniProt O00506 (whole entry, looked up): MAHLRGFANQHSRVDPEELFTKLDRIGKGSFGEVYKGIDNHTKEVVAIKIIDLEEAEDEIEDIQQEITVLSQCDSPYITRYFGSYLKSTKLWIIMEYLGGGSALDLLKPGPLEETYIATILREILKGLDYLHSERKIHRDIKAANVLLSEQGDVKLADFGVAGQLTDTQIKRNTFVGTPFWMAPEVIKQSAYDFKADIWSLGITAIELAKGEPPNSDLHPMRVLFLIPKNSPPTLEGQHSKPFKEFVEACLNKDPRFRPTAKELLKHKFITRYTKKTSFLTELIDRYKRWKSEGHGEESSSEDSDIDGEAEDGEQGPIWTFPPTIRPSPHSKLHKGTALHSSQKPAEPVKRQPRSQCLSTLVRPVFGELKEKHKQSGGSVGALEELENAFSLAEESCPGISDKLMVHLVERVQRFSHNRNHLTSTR
Sequence of UniProt P53667 (whole entry, looked up): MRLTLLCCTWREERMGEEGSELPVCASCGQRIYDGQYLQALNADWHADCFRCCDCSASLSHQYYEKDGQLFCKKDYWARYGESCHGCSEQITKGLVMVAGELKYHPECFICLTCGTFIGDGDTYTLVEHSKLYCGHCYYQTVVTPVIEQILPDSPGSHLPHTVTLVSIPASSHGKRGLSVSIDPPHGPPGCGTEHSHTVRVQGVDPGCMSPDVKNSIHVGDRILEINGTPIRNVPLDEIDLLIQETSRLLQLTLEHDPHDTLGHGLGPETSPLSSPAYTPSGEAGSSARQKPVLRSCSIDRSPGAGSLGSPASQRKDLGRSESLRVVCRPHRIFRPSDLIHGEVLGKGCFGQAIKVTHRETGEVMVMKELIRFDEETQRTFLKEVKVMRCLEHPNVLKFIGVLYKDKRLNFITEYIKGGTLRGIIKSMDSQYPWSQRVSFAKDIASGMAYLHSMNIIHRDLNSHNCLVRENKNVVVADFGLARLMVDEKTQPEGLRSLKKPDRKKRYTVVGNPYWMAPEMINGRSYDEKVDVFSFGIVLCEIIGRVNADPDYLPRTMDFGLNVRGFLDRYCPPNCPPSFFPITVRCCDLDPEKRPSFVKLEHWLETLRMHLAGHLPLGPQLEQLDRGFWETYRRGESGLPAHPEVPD

Series 1
Organism: Sarcocystis neurona
Effect on: parasite activity
Tested at: 10 µM
Time: 96 h
| SMILES | activity class |
| --- | --- |
| CC(C)[N+]1(C)[C@@H]2CC[C@H]1C[C@@H](OC(=O)C(CO)c1ccccc1)C2 (stereo partly shown) | inactive |
| Nc1nc2c(ncn2CCC(CO)CO)c(=O)[nH]1 | inactive |
| Oc1ccc(C2CNCCc3c2cc(O)c(O)c3Cl)cc1 (stereo not shown) | inactive |
| NC(=O)N1c2ccccc2CC(=O)c2ccccc21 | inactive |
| C[C@@H]1C[C@H]2[C@@H]3C[C@H](F)C4=CC(=O)C(Cl)=C[C@]4(C)[C@@]3(F)[C@@H](O)C[C@]2(C)[C@@]1(O)C(=O)CO | inactive |
| COC(=O)C1=C(C)NC(C)=C(C(=O)OC(C)C)C1c1cccc2nonc12 (stereo not shown) | inactive |
| C/C(=C\C(=O)OCCCCCCCCC(=O)O)C[C@@H]1OC[C@H](C[C@@H]2O[C@H]2[C@@H](C)[C@H](C)O)[C@@H](O)[C@H]1O | inactive |
| Cc1onc(-c2ccccc2)c1-c1ccc(S(N)(=O)=O)cc1 | inactive |
| CC1=C(/C=C/C(C)=C/C=C/C(C)=C\C(=O)O)C(C)(C)CCC1 | inactive |
| COc1ccc2cc(CCC(C)=O)ccc2c1 | inactive |
| COc1cccc2c1C(=O)c1c(O)c3c(c(O)c1C2=O)C[C@@](O)(C(=O)CO)C[C@@H]3O[C@H]1C[C@H](N)[C@H](O)[C@H](C)O1 | inactive |
| COc1ccc2[nH]c([S+]([O-])Cc3ncc(C)c(OC)c3C)nc2c1 (stereo not shown) | inactive |

Series 2
Host: mouse
Medium: microsomes or S9
Tested at: 2 µM
Time: 0.5 h
| SMILES | remaining compound [%] |
| --- | --- |
| COc1ccc(-c2cc(C(=O)N3CCc4ccccc4C3)n[nH]2)cc1S(=O)(=O)N(C)C | 2.87 |
| O=c1ccc2cc(S(=O)(=O)N3CCOCC3)ccc2[nH]1 | 79.2 |
| O=C(NC1(c2nnc[nH]2)CCC1)c1cncc(F)c1 | 97.1 |
| O=C1CC(c2ccsc2)c2ccc3ccccc3c2N1 (stereo not shown) | 0.592 |
| CCC1CCCCN1C(=O)c1sc2nc(C)nc(N(CC)CC)c2c1C (stereo not shown) | 0.0529 |
| CC1CCc2cc(F)ccc2N1S(=O)(=O)c1ccc(S(=O)(=O)NC2CCCCC2)cc1 (stereo not shown) | 90.5 |
| COC(=O)Nc1nc2cc(C(=O)c3ccccc3C(=O)OC(C)C)ccc2[nH]1 | 39.1 |
| CC(C)(C)/N=c1\[nH]c(-c2ccccc2O)nc2ccccc12 | 67.5 |
| CC(C)=CCn1c(COc2ccc(Br)cc2Cl)noc1=O | > 99.9 |
| CNC(=O)c1cc(Cl)cc(C)c1NC(=O)c1cc(Br)nn1-c1c(F)c(F)cc(F)c1F | > 99 |
| CC(C)(C)c1cc(SCC(=O)O)cc(C(C)(C)C)c1O | > 99 |
| COC(=O)C(C)NC(=O)C12CC3(C)CC(C)(CC(C)(C3)C1)C2 (stereo not shown) | 0.014 |

Series 3
Compound: O=C(Nc1ccc(-n2nc(-c3cccnc3)cc2C(F)(F)F)cn1)c1ccc(-c2ccccc2)c(F)c1
Effect on: binding
Technique: radioligand binding
Tested at: 10 µM
| target | inhibition |
| --- | --- |
| HTR1D (Homo sapiens, UniProt P28221) | -9.83% |
| HTR3A (Homo sapiens, UniProt P46098) | -8.89% |
| HTR2B (Homo sapiens, UniProt P41595) | 9.91% |

Series 4
Compound: O=C1Cc2c([nH]c3ccc(Br)cc23)-c2ccccc2N1
Effect on: enzyme activity
Mode: inhibitor
Tested at: 0.5 µM
Relative to: control
| target | remaining activity |
| --- | --- |
| NLK (Homo sapiens, UniProt Q9UBE8) | 98.7% |
| FGR (Homo sapiens, UniProt P09769) | 74.4% |
| FYN (Homo sapiens, UniProt P06241) | 73.4% |
| LIM domain kinase 1 (LIMK1, Homo sapiens, UniProt P53667) | 99.2% |
| ALK (Homo sapiens, UniProt Q9UM73) | 90.8% |
| NEK11 (Homo sapiens, UniProt Q8NG66) | 107% |
| STK25 (Homo sapiens, UniProt O00506) | 98.8% |
| PASK (Homo sapiens, UniProt Q96RG2) | 98% |
| FER (Homo sapiens, UniProt P16591) | 89.7% |
| Cyclin-dependent kinase 3, with cyclin E (CDK3, Homo sapiens, UniProt Q00526) | 81.7% |
| TAOK3 (Homo sapiens, UniProt Q9H2K8) | 82.8% |
| MATK (Homo sapiens, UniProt P42679) | 93.6% |
| ITK (Homo sapiens, UniProt Q08881) | 102% |
| FLT4 (Homo sapiens, UniProt P35916) | 78.7% |
| SRC (Homo sapiens, UniProt P12931) | 71.3% |
| CDC42BPA (Homo sapiens, UniProt Q5VT25) | 99% |
| PKN1 (Homo sapiens, UniProt Q16512) | 101% |
| PRKX (Homo sapiens, UniProt P51817) | 100% |
| Insulin receptor (INSR, Homo sapiens, UniProt P06213) | 101% |
| AKT1 (Homo sapiens, UniProt P31749) | 99.9% |
| MARK3 (Homo sapiens, UniProt P27448) | 76.8% |

Single results of other studies
| Structure (SMILES) | target | effect on | technique | medium | tested at | endpoint | value |
| --- | --- | --- | --- | --- | --- | --- | --- |
| CC(C)S(=O)(=O)c1ccc2nccc(Nc3ccc4scnc4c3)c2c1 | Receptor-interacting serine/threonine-protein kinase 3 (Ripk3, Mus musculus, UniProt Q9QZL0, C111A/R69H) | kinase domain dimerization | size-exclusion chromatography | Superdex 200 column | concentration not given | elution volume | 15.9 mL and 16.1 mL |

A few entries again (series 4):
| target | remaining activity |
| --- | --- |
| PKN1 (Homo sapiens, UniProt Q16512) | 101% |
| MARK3 (Homo sapiens, UniProt P27448) | 76.8% |
| TAOK3 (Homo sapiens, UniProt Q9H2K8) | 82.8% |
| PASK (Homo sapiens, UniProt Q96RG2) | 98% |
